Assay results gathered from unrelated publications.
Each line is one published result; not all experiments were run side by side. ± gives the spread as reported.
Technique: steady-state kinetics
B1: efeB (Bacillus subtilis, UniProt P39597); chain IGASGLGGLAPLVQTAAKPSKKDEKEEEQIVPFYGKHQAGITTAHQTYVYFAALDVTAKDKSDIITLFRNWTSLTQMLTSGKKMSAEQRNQYLPPQDTGESADLSPSNLTVTFGFGPGFFEKDGKDRFGLKSKKPKHLAALPAMPNDNLDEKQGGGDICIQVCADDEQVAFHALRNLLNQAVGTCEVRFVNKGFLSGGKNGETPRNLFGFKDGTGNQSTKDDTLMNSIVWIQSGEPDWMTGGTYMAFRKIKMFLEVWDRSSLKDQEDTFGRRKSSGAPFGQKKETDPVKLNQIPSNSHVSLAKSTGKQILRRAFSYTEGLDPKTGYMDAGLLFISFQKNPDNQFIPMLKALSAKDALNEYTQTIGSALYACPGGCKKGEYIAQRLLES
B2: enzyme S446A (Methanosarcina mazei, UniProt Q8PVB1); chain MSEQRSVPLREHLLALKPCRHGGLIQETSETYGIPENEILDFSANFNPLGSPFDYPENGLNFEDIIKKSCGKLLEYPDNRYVEFREAAARFVGLGVTPQSIVPGNGSTEIVRLVVESVIEKGDKVLLPWPTFGEYEMQCRITGAEPVCPSQEEVNTLPDEVLEEAKILFICNPNNPTGKLRTREELKVLAERCREHKTLLYVDEAFIELSDPSQSVADLPAENNYVFVMRSLTKDFAIPGIRMGFGIAPPAMADILNTARLSWNLGAIANNTGIALLNIEGGIDSPYLKKAREMILKEGETLKAKIDRIRGFEAGEVNVNFILVDVSKFMLNSSELTARLAARGVLVRDCVSFHGLGKNYIRVAVRTEKENDRLIAAIGDVITEWGREQAKNELQHVIEKASEEGIGGRKTCEYYPCHFEGQNCTFCFCPFYPCENEKTGGKWIQASRGGRVWSCVDCHLVHKKEIAQKILDCLMHEGDTDELVKVAWKEVMEPIL
B3: SCO6712 S292F/V290N (Streptomyces coelicolor, UniProt Q9XAL8); chain AKGITARTAPAGGEVRHLKMYAEKLADGQMGYGFEKGKASVPGPLIEVNEGDTLHIEFTNTMDVRASLHVHGLDYEISSDGTAMNKSDVEPGGTRTYTWRTHKPGRRDDGTWRPGSAGYWHYHDHVVGTEHGTGGIRNGLYGPVIVRRKGDVLPDATHTIVFNDMTINNRKPHTGPDFEATVGDRVEIVMITHGEYYHTFHMHGHRWADNRTGILTGPDDPSRVIDNKITGPADSFGFQIIAGEGVGAGAWMYHCHNQFHSDMGMVGLFLVKKPDGTIPGYEPHEHGGATAKSGESGEPTGGAAAHEHEH
B4: enzyme W53Y (Thermoplasma volcanium, UniProt Q978S7); chain MAFHGLVKYSDITVEGYPKIQYHGFIGNNRTAMLVAMNGYIDYGCLPNFNSNAVFSSILDKNKGGYFAIFPSDTTDVYVDQYYKEMTNVLVTEFVKNGKIILRLTDFMPDSEYGKISFPEVHRFVESFSEPIDITIDFKPTFNYGQDKPIIEKDQHGFIFTTDKESIGISSEFPLRKNSDRIFGNVKMEPRSSSWIIALYGIHHLFRTTDYKSYLRLQETTDYWRKWASSSSYAGAYHSMVMRSALALKVLFYEPTGLMVAAPTASLPEAIGGERNWDYRFTWIRDTAYVIEALSSIGYKYEATEFLYDMMDMITRDNRIRTIYSIDDSNDLEERIIDYEGYRGSRPVRIGNKAVDQLQIDQYGSIVRAIHSMAKAGGIVNSYLWDFVEQVMAKIEYLWKYPDSSIWEFRTEPKQYVYSKVMSWAAFDSAISMAKDLGLSAPIKQWKSIQDEIKKEVLEKGFDTDTNSFVQYYGSKNIDAALLRLPILGFIPANDEKFLGTLSRIEKELMVDGYLFKRYREDDGLKGDEGSFLMLTFWYIEDLILMKRLKKAREVLESVLEKANHLGLYSEEIDEKSGDFLGNFPQALSHLGVIRVAPKLEEALLKRTSKINS
B5: DCK (Homo sapiens, UniProt P27707); chain MATPPKRSCPSFSASSEGTRIKKISIEGNIAAGKSTFVNILKQLCEDWEVVPEPVARWCNVQSTQDEFEELTMSQKNGGNVLQMMYEKPERWSFTFQTYACLSRIRAQLASLNGKLKDAEKPVLFFERSVYSDRYIFASNLYESECMNETEWTIYQDWHDWMNNQFGQSLELDGIIYLQATPETCLHRIYLRGRNEEQGIPLEYLEKLHYKHESWLLHRTLKTNFDYLQEVPILTLDVNEDFKDKYESLVEKVKEFLSTL
B6: enzyme (Azotobacter vinelandii, UniProt C1DN94); chain MSESPLRLDRLRDFVSALGELLDRHPDEESVLREGRSLLGELVRHDDWLPEEFAQPDPERYQQYLLHADSRQRFSVVSFVWGPGQTTPVHDHRVWGLIGMLRGAEDAQSFELGAEGLRPIGDPVRLSPGQVEAVSPRIGDIHRVFNASPDQPSISIHVYGANIGAVRRAVYLPDGSEKPFISGYSNQFLPNIWDQSKESARP
B7: acsA (Pseudomonas chlororaphis, UniProt Q5CD72); chain MRDYEHVVESFDYLQSATQDLHGELTALNACVECCDRHAHGEAVALYCEAQDGHAERYRFRDLQRQAARFGNFLREQGVKPGDRVAGLMPRTVELLIAILGTWRIGAVYQPLFTAFGPKAIEQRLNCSNARWIVTDPHNRPKLDDVTDCPSIVVTGGAPQNPADHHFWSALNRQADDCAPVLLDASAPFLLMCTSGTTGPAKPLEVPLSAILAFKGYMRDAIDLRADDRFWNLADPGWAYGLYYAVTGPLACGYATLFYDGPFTVESTRHIIAKYAINNLAGSPTAYRFLIAAGAEFADAVRGRLRAVSSAGEPLNPQVVRWFAEQLGVVIHDHYGQTEIGMVLCNHHGLRHPVREGSAGYAVPGYRIVVLDKAHRELPAGQPGVLAVDRERSPLCWFDGYLGMPTQAFAGRYYLSGDIVELNDDGSISFVGRNDDLITTSGYRVGPFDVESALIEHPAVVEAAVIGKPDPQRTELIKAFVVLNTPYLPSPELAEELRLHVRQRLAAHAYPREMEFVDHLPKTPSGKLQRFILRNQEIAKQQALG
B8: enzyme (Rhodospirillum rubrum, UniProt Q2RSU5); chain MSDSNDDRPFRPFQSQYRWPGVDLLAYKEEGSAPFRSVTRQVLFSGNGLTGELRYFEVGPGGHSTLERHQHAHGVMILKGRGHAMVGRAVSAVAPYDLVTIPGWSWHQFRAPADEALGFLCMVNAERDKPQLPTEADLAMLRADDAVAAFLDGLAG
B9: aspC A106G/A218G/F210I/I29V/I33V/I68L/I71L/N30D/N64T/S135A/T100S/V136I/V375I (Escherichia coli, UniProt P00509); chain MFENITAAPADPILGLADLFRADERPGKVDLGVGVYKDETGKTPVLTSVKKAEQYLLENETTKTYLGLDGLPEFGRCTQELLFGKGSALINDKRARTAQSPGGTGGLRVAADFLAKNTSVKRVWVSNPSWPNHKAIFNSAGLEVREYAYYDAENHTLDFDALINSLNEAQAGDVVLFHGCCHNPTGIDPTLEQWQTLAQLSVEKGWLPLIDFAYQGFGRGLEEDAEGLRAFAAMHKELIVASSYSKNFGLYNERVGACTLVAADSETVDRAFSQMKAAIRANYSNPPAHGASVVATILSNDALRAIWEQELTDMRQRIQRMRQLFVNTLQEKGANRDFSFIIKQNGMFSFSGLTKEQVLRLREEFGVYAVASGRINVAGMTPDNMAPLCEAIVAVL
B10: bxlB (Aspergillus nidulans, UniProt Q5ATH9); chain NYPDCTTGPLSELPICDTSLSPLERAKSLVSALTLEEKINNTGHEAAGSSRLGLPAYNWWNEALHGVAEKHGVSFEESGDFSYATSFPAPIVLGAAFNDALIRRVAEIISTEARAFSNSDHAGIDYWTPNVNPFKDPRWGRGQETPGEDPLHCSRYVKEFVGGLQGDDPEKPKVVATCKHLAAYDLEEWGGVSRFEFDAKVSAVDLLEYYLPPFKTCAVDASVGAFMCSYNALNGVPACADRYLLQTVLREHWGWEGPGHWVTGDCGAVERIQTYHHYVESGPEAAAAALNAGVDLDCGTWLPSYLGEAERQGLISNETLDAALTRLYTSLVQLGYFDPAEGQPLRSLGWDDVATSEAEELAKTVAIQGTVLLKNIDWTLPLKANGTLALIGPFINFTTELQSNYAGPAKHIPTMIEAAERLGYNVLTAPGTEVNSTSTDGFDDALAIAAEADALIFFGGIDNTVEEESLDRTRIDWPGNQEELILELAELGRPLTVVQFGGGQVDDSALLASAGVGAIVWAGYPSQAGGAGVFDVLTGKAAPAGRLPITQYPKSYVDEVPMTDMNLQPGTDNPGRTYRWYEDAVLPFGFGLHYTTFNVSWAKKAFGPYDAATLARGKNPSSNIVDTFSLAVTNTGDVASDYVALVFASAPELGAQPAPIKTLVGYSRASLIKPGETRKVDVEVTVAPLTRATEDGRVVLYPGEYTLLVDVNDEYPTAKFEIKGDVQVLEKFPLSGNDSD
B11: enzyme S252E (Schizosaccharomyces pombe, UniProt P78804); chain MSTPYEPEFQQAYKEIVGSIESSKLFEVHPELKRVLPIISIPERVLEFRVTWEDDKGNCRVNTGYRVQFNSALGPYKGGLRFHPSVNLSILKFLGFEQIFKNALTGLPMGGGKGGSDFDPKGKSDNEIRRFSQAFMRQLFRYIGPQTDVPAGDIGVTGFVVMHMFGEYKRLRNEYSGVVTGKHMLTGGSNIRPEATGYGVVYYVKHMIEHRTKGAETLKGKRVAISGSGNVAQYAALKCIQEGAIVKSISDEKGVLIAKTAEGLVPEEIHEIMALKEKRASIADSASLCKKHHYIAGARPWTNVGEIDIALPCATQNEVSGEEAAALIKQGCRYVAEGSNMGSSAEAVEVFEKSRASGEGCWLAPGKAANAGGVAVSGLEMAQNAQFSTWTHAEVDAKLAGIMQNIFEQSTDVASKYCDSGSNNIPSLVDGANIAGFLKVATAMQAVGDWW
B12: enzyme (Pseudomonas aeruginosa, UniProt Q9I6F6); chain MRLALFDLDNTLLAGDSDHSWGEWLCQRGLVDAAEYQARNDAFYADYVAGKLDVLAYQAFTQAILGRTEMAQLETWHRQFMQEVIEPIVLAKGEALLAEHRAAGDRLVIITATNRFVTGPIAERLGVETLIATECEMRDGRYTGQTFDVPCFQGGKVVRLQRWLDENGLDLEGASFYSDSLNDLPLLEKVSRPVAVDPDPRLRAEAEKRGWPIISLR
UniProt P0AE52, sequence (whole entry, looked up): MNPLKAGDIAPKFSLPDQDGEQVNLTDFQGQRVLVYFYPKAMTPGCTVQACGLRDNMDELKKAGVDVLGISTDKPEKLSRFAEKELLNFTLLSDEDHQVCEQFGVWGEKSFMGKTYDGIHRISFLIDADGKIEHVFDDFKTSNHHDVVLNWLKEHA

With `enzyme (UniProt A0A4R3LQ44)` the kcat/Km was 24400 ± 2500 M⁻¹ s⁻¹ (O=C(O)[C@H](O)[C@@H](O)[C@@H](O)[C@H](O)CO; pH 7.5, 50 °C).
The kcat/Km of `B1 (efeB)` is reported as 8900 M⁻¹ s⁻¹ (CCn1c(=NN=c2sc3cc(S(=O)(=O)O)ccc3n2CC)sc2cc(S(=O)(=O)O)ccc21; pH 6, 25 °C, apparent).
With `B2 (enzyme S446A)` the kcat/Km was 68 ± 19 M⁻¹ s⁻¹ (Nc1ncnc2c1ncn2[C@@H]1O[C@H](COP(=O)(O)OP(=O)(O)OP(=O)(O)O)[C@@H](O)[C@H]1O; pH 8.5, 25 °C, apparent, anoxic, together with: L-Thr 10 mM).
`enzyme (Mycosarcoma maydis, UniProt A0A0U2UYC4)` has a kcat/Km of 89100 M⁻¹ s⁻¹ (O=C(O)/C=C(\CC(=O)O)C(=O)O; pH 5.5, 37 °C).
The kcat/Km of `bcp (Escherichia coli, UniProt P0AE52)` is reported as 12000 M⁻¹ s⁻¹ (CC(C)(OO)c1ccccc1; pH 7, 25 °C, apparent).
`B3 (SCO6712 S292F/V290N)` gave a kcat/Km of 2000 ± 200 M⁻¹ s⁻¹ (CCn1c(=NN=c2sc3cc(S(=O)(=O)O)ccc3n2CC)sc2cc(S(=O)(=O)O)ccc21; pH 7, 37 °C, NaCl 150 mM, together with: O2 cosubstrate).
The kcat/Km of `B4 (enzyme W53Y)` is reported as 90 M⁻¹ s⁻¹ (OC[C@H]1O[C@H](O[C@H]2O[C@H](CO)[C@@H](O)[C@H](O)[C@H]2O)[C@H](O)[C@@H](O)[C@@H]1O; pH 3.7, 30 °C).
`B5 (DCK)` has a kcat/Km of 8300 M⁻¹ s⁻¹ (Nc1ccn([C@@H]2O[C@H](CO)[C@@H](O)C2(F)F)c(=O)n1; pH 7.6, per site).
With `B6 (enzyme)` the kcat/Km was 110 ± 20 M⁻¹ s⁻¹ (N[C@@H](CS)C(=O)O; pH 8, 25 °C, together with: O2).
`B7 (acsA)` gave a kcat/Km of 1500 ± 167 M⁻¹ s⁻¹ (CC(=O)O; pH 7).
`B8 (enzyme)` has a kcat/Km of 200000 M⁻¹ s⁻¹ (CSCC(=O)[C@@H](O)[C@H](O)COP(=O)(O)O; together with: DTT).
The kcat/Km of `B9` is reported as 29000 M⁻¹ s⁻¹ (N[C@@H](Cc1ccc(O)cc1)C(=O)O; pH 7.5, 25 °C, together with: PLP 20 µM).
For `enzyme (Bacteroides ovatus, UniProt A0ABU3IP51)`, the kcat/Km was 582000 M⁻¹ s⁻¹ (O=[N+]([O-])c1ccc(O[C@H]2O[C@H](CO)[C@@H](O)[C@H](O)[C@H]2O)cc1; pH 6.6).
With `B10 (bxlB)` the kcat/Km was 15700 M⁻¹ s⁻¹ (O=[N+]([O-])c1ccc(O[C@@H]2OC[C@@H](O)[C@H](O)[C@H]2O)cc1; pH 5, 50 °C).
The kcat/Km of `B11 (enzyme S252E)` is reported as 8600 ± 700 M⁻¹ s⁻¹ (NC(=O)C1=CN([C@@H]2O[C@H](COP(=O)(O)OP(=O)(O)OC[C@H]3O[C@@H](n4cnc5c(N)ncnc54)[C@H](O)[C@@H]3O)[C@@H](O)[C@H]2O)C=CC1; pH 7, 30 °C, apparent).
The kcat/Km of `enzyme (UniProt Q83XK4)` is reported as 3400 M⁻¹ s⁻¹ (NC(=O)C1=CN([C@@H]2O[C@H](COP(=O)(O)OP(=O)(O)OC[C@H]3O[C@@H](n4cnc5c(N)ncnc54)[C@H](O)[C@@H]3O)[C@@H](O)[C@H]2O)C=CC1; pH 7, 30 °C, cofactor varied).
`B12 (enzyme)` has a kcat/Km of 390000 ± 20000 M⁻¹ s⁻¹ (N[C@H](COP(=O)(O)O)Cc1c[nH]cn1; pH 7.8, 25 °C).
`enzyme (Ectocarpus siliculosus, UniProt D7FYY3)` has a kcat/Km of 27000 M⁻¹ s⁻¹ (C=C(OP(=O)(O)O)C(=O)O; pH 5.5, 25 °C, together with: 2 mM ADP).
For `spt R378K (Sphingomonas paucimobilis)`, the kcat/Km was 2000 M⁻¹ s⁻¹ (CCCCCCCCCCCCCC(=O)SCCNC(=O)CCNC(=O)[C@H](O)C(C)(C)COP(=O)(O)OP(=O)(O)OC[C@H]1O[C@@H](n2cnc3c(N)ncnc32)[C@H](O)[C@@H]1OP(=O)(O)O; together with: PLP).
